Assay results collected from several papers.
Every numbered part comes from another study and shows a few of its results, in no order.

Series 1 — technique: protein-binding microarray; form: double-stranded DNA, one strand shown; medium: in vitro; concentration: 2200 nM top; setting: 60-bp whole probe; with: salmon DNA 0.4 mg/ml; baseline: random background probes; reading: higher = stronger binding; all sequences stand within: GCCTAGCACT … GTCTTGATTCGCTTGACGCTGCTG
Target: Interferon regulatory factor 7, full length, phosphomimetic (IRF7, Homo sapiens, UniProt Q92985, residues 1-503, S471D/S472D/S475D/S476D/S477D/S483D/S484D/S487D)
Target sequence (chain): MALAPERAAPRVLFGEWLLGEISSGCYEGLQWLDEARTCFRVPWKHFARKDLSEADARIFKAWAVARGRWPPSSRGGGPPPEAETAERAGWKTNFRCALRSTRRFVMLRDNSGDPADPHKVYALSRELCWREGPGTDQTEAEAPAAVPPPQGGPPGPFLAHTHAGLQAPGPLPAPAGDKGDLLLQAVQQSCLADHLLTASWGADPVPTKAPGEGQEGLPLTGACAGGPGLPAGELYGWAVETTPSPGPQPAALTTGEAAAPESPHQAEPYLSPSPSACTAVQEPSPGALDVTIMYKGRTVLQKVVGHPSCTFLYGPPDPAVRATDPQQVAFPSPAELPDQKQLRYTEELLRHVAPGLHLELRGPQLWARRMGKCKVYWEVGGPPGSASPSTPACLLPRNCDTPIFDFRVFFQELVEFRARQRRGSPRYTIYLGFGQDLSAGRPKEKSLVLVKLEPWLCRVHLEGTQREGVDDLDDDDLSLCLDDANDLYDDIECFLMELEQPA
For `TTGGTGTCTTTTGTGGAAACGTGCTA`, “fitted relative affinity” read 1.02 z-score.
Under “fitted relative affinity”, `TAGGACTGCGACTGGGTTAGTGCTAG` is recorded as -0.436 z-score.
For `TAGGTTGCGGGTTTCGGTTAGTGCTA`, “fitted relative affinity” read 3.85 z-score.
`GGAGCCTAAGGTTTAGGCTCGTGCTA` — result for “fitted relative affinity”: -0.777 z-score.
For `TAGGTTCCGGTCTCGGTTAGTGCTAG`, “fitted relative affinity” read 1.56 z-score.
`TTCATTTATTTACTCTCTACGTGCTA` — result for “fitted relative affinity”: 4.18 z-score.

Series 2 — technique: protein binding microarray; form: double-stranded DNA, one strand shown; medium: in vitro; concentration: not given; baseline: not given; reading: higher = stronger binding
Target: Histone acetyltransferase KAT6A, both winged helices, GST fusion (KAT6A, Homo sapiens, UniProt Q92794, residues 1-181)
Setting: 8-mer, flanks averaged, mean of 2 arrays, mostly near background
Residues (chain): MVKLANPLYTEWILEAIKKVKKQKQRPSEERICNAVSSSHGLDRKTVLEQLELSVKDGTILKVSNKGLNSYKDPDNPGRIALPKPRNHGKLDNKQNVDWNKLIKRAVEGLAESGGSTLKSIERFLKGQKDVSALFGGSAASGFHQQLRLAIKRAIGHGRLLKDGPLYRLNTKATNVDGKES
`GGGGTATA` gave an E-score of -0.173.
`CACAACTC` gave an E-score of -0.156.
`TCGATGAA` has an E-score of 0.102.
`CGAGATAA` has an E-score of -0.0832.
`AAAAGTTC` has an E-score of -0.0329.
`GCGTTCCC` gave an E-score of 0.229.
`AGAATCTC` has an E-score of -0.258.
With `CTACGGCA` the E-score was 0.281.
For `ACCTGACA`, the E-score was -0.109.
With `GCCCGTAA` the E-score was 0.239.

Series 3 — technique: protein-binding microarray; form: double-stranded DNA, one strand shown; medium: in vitro; concentration: 0.8 µM; setting: whole 60-bp probe, no competitor; reading: higher = stronger binding
Target: Centromere-binding protein 1, full length, N-terminal tag (CBF1, Saccharomyces cerevisiae, UniProt P17106, residues 1-351)
Chain of UniProt P17106 (whole entry, looked up): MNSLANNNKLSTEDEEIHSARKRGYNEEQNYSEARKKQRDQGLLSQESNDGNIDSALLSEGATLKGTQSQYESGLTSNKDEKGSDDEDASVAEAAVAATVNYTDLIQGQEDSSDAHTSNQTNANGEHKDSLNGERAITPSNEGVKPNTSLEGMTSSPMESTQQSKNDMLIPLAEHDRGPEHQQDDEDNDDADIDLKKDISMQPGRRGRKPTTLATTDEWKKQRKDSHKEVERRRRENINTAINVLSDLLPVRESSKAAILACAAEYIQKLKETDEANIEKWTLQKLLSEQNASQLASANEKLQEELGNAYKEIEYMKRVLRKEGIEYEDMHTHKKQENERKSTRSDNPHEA
`GAAGTTCAACAAAGGCACGCCTTTGGTAGAAGATAGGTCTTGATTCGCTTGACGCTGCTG` has a fluorescence intensity of 503 a.u.
For `CTATACTGTATTCGTGGTGTCCCTTTTCAGAAATTCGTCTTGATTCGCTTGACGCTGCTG`, the fluorescence intensity was 595 a.u.
`TGTACGAAGCTATGTCACGGAGATATAGTAGTTAGGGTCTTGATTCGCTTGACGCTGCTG` gave a fluorescence intensity of 564 a.u.
For `GAAGAGAGTAACAAGCATGTGAACTTGTTGTTCTAGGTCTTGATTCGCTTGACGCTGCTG`, the fluorescence intensity was 594 a.u.
For `GAAACTAGCCATTGCCACGTAAAATGGCAAGACTAGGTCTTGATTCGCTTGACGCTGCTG`, the fluorescence intensity was 477 a.u.
`GAAATCAATATAAGCAACGTGAAACGATCGAAGTAGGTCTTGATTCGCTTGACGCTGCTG` has a fluorescence intensity of 587 a.u.
`CTATAGGTTCACATCCATGTGCACTGGTGCTGCTTCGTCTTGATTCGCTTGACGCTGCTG` has a fluorescence intensity of 623 a.u.
For `GAACAATTTTCCAGCCACACGTGAAGTAAGCTGTAGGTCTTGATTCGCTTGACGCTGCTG`, the fluorescence intensity was 2000 a.u.
With `GAAGTTTATCCTTTTCACGTTCTAAAAATCAATTAGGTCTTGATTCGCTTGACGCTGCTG` the fluorescence intensity was 693 a.u.

Mixed results
With `PhoQ, residues 284 288 289 292 302 303 SSTLSG` the fold induction was 3.97 (PhoP, residues 12 14 15 18 19 HEGLL (Escherichia coli, UniProt P23836); Sort-seq, measured: YFP reporter; E. coli; PhoQ-PhoP variant library, with: 10 µM Mg2+; baseline: high Mg2+ state, higher = stronger signaling).

Excerpt of the above (series 1):
`GGAGCCTAAGGTTTAGGCTCGTGCTA` — result for “fitted relative affinity”: -0.777 z-score.
For `TAGGTTCCGGTCTCGGTTAGTGCTAG`, “fitted relative affinity” read 1.56 z-score.
